{"data": "Measured values of several laboratories", "target": "Metallo-beta-lactamase VIM-2 (VIM-2, Escherichia coli, UniProt Q5U7L7)", "action": "inhibitor", "note": "Each line is one published result; not all experiments were run side by side. ± marks the error that the study gave."}
{"Compound": "O=C(CCS)Nc1ccccc1-c1nn[nH]n1", "test": "enzyme activity, fluorescence", "setting": "with preincubation", "IC50 [µM]": 0.0282}
{"Compound": "O=C(O)CC(O)(CC(=O)O)C(=O)O", "test": "enzyme activity, fluorescence", "IC50 [µM]": 102}
{"Compound": "O=C(O)c1cccc(CP(=O)(O)O)n1", "test": "enzyme activity, absorbance", "setting": "with preincubation", "IC50 [µM]": 1.29}
{"Compound": "N[C@@H](CN[C@@H](CN[C@@H](CC(=O)O)C(=O)O)C(=O)O)C(=O)O", "test": "enzyme activity", "setting": "Zn2+-depleted enzyme", "IC50 [µM]": 3000}
{"Compound": "Cn1nnnc1-c1cccc(NC(=O)CCS)c1", "test": "enzyme activity, fluorescence", "setting": "with preincubation", "IC50 [µM]": 0.48}
{"Compound": "O=C(O)CNCP(=O)(O)O", "test": "enzyme activity, fluorescence", "IC50 [µM]": 41}
{"Compound": "COCc1c(C(=O)O)nnn1Cc1c(F)cccc1Cl", "test": "enzyme activity, fluorescence", "setting": "with preincubation", "IC50 [µM]": 38.1}
{"Compound": "NC(CNC(CNC(CC(=O)O)C(=O)O)C(=O)O)C(=O)O (stereo not drawn)", "IC50 [µM]": "9.6 ± 2.4"}
{"Compound": "O=C(O)CN(CCO)CCO", "test": "enzyme activity, fluorescence", "IC50 [µM]": "> 200"}
{"Compound": "Cn1nnc(-c2cccc(NC(=O)CS)c2)n1", "test": "enzyme activity, fluorescence", "setting": "with preincubation", "IC50 [µM]": 1.38}
{"Compound": "CC(C)Cc1cc(C(=O)O)nc2[nH][nH]c(=O)c12", "test": "enzyme activity, fluorescence", "setting": "with preincubation", "IC50 [µM]": 540}
{"Compound": "CN(C)c1ccc2c(c1)C(=O)N(C(CS)C(N)=O)C2=O (stereo not drawn)", "test": "enzyme activity", "setting": "pH 7", "IC50 [µM]": 1.7}
{"Compound": "O=C(O)c1nc[nH]c1C(=O)Nc1ccccc1", "test": "enzyme activity, fluorescence", "setting": "with preincubation", "IC50 [µM]": 169}
{"Compound": "O=C(CCS)Nc1cccc(-c2nn[nH]n2)c1", "test": "enzyme activity, fluorescence", "setting": "with preincubation", "IC50 [µM]": 0.0214}
{"Compound": "O=C(O)CNC(CO)(CO)CO", "test": "enzyme activity, fluorescence", "IC50 [µM]": "> 200"}
{"note": "Repeated from above:"}
{"Compound": "CN(C)c1ccc2c(c1)C(=O)N(C(CS)C(N)=O)C2=O (stereo not drawn)", "test": "enzyme activity", "setting": "pH 7", "IC50 [µM]": 1.7}
{"Compound": "O=C(CCS)Nc1ccccc1-c1nn[nH]n1", "test": "enzyme activity, fluorescence", "setting": "with preincubation", "IC50 [µM]": 0.0282}
